Published values collected from several papers.
Every numbered part comes from another study and shows a few of its results, in no order.

Block 1
Target: Interferon regulatory factor 5, full length, phosphomimetic (IRF5, Homo sapiens, UniProt Q13568-2, residues 1-514, S451D/S453D/S456D/S462D)
Method: protein-binding microarray
Molecule type: double-stranded DNA, one strand shown
Medium: in vitro
Concentration: 940 nM top
Setting: 60-bp whole probe
Added: salmon DNA 0.4 mg/ml
Relative to: random background probes
Reading: higher = stronger binding
Quantity: fitted relative affinity
Shared flanks, not repeated: GCCTAGCAC … GTCTTGATTCGCTTGACGCTGCTG
CTAGGTTTCCTACTGCTTTAGTGCTAG: 0.374 z-score
ATAGATATCGGGACTGGATTAGTGCTA: 0.0384 z-score
GACGAACTGGGTCTCGAGACGTGCTAG: 0.0595 z-score
GACGAATTGAGTATCGAGACGTGCTAG: 1.65 z-score
GAAGATTTCAATTAAAAAAAGTGCTAG: 0.217 z-score
TTAGGTTTTGACTTTCGGTTAGTGCTA: 3.49 z-score
GACGGTCTCCTACTGCTGACGTGCTAG: -0.158 z-score
CACGAACTGAGTATCGAGACGTGCTAG: 1.24 z-score
GACGGTTTCGGTTCCGGGTCGTGCTAG: 15.8 z-score
GACTTTTTAGATATCTTTTTGTGCTAG: 0.399 z-score
TCTGTTTTTGCTTTCCTTCTGTGCTAG: 1.93 z-score
TTAGCTTTCAGTCTCGATTAGTGCTAG: 4.28 z-score
GACGGTTCCCCTTTCCTGACGTGCTAG: 0.931 z-score
AGTTAATCCCTCTCAGGCATGTGCTAG: 0.278 z-score
TTAGGTCTCGGACTGGGTTTGTGCTAG: 0.874 z-score
CCAGGGCTCTAGAGAAATAGGTGCTAG: -0.508 z-score
TGGCCTCTAGGTTTTCTGGAGTGCTAG: -0.34 z-score
GACGATTTCATACTGGAGACGTGCTAG: 0.257 z-score
GAGGGTTTCGGTTCCGGGACGTGCTAG: 10.8 z-score

Block 2
Target: RNA binding protein fox-1 homolog 2, RRM domain, GST-SBP tag (RBFOX2, Homo sapiens, UniProt O43251-10, residues 100-194)
Method: RNA Bind-n-Seq
Molecule type: RNA
Medium: in vitro
Concentration: 365 nM
Setting: natural RNA segment, single round, ends assumed
Relative to: no-protein control
Reading: higher = stronger binding
Quantity: RBNS enrichment (R)
Shared flanks, not repeated: GGGAGUUCUACAGUCCGACGAUC … UGGAAUUCUCGGGUGCCAA
Residues (chain): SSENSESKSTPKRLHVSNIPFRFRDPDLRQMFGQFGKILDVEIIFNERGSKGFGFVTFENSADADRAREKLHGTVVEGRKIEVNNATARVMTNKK
UUAUUUUGGACAUUCUUAAAUAUGAAUUCUCCAAAGGCAUUUAGCCUUGACUUAAUAUUAAAUCCUAAGGAUUUUAUGUAAGGUUUUUUUGCAACCUAUUUAAUUUUUUU: 1.24
GUAGCCUGUAACCACUUUUAAAUGGCUUGAAAUUAGGAAACUUGUACAUUUAAUGUACACUUUGCGGUAGAUUAAGGAAUAUACUGCAUAUUUCUUUUUUUAAACUCGGG: 0.369
CUGCCUCCCUUGUCCUGUGAUUGUUCUGGAGGCUUCUGCCCAACUGCUUCACUUUCUCCAACCCUUCGUAGCUGCCUGGGCUCUUUUCCAACCUGUCAGGCUGGCGCCUU: 0.752
GGAACUUUCUAGACUCCCGCUCAUUCAAUUGAUCUAGGCAUUUGGGCUUGCUACUUGACCAUUCUCGCCCUGUGAAAUGUCCCACACUUUGAAGCAAAUACAAUUCACAG: 0.391
CCCACCCCUUCUAAAGUGCAAUGCAAAAGGGACAUCAUGUAUAUGCAGCGUUUGUUUGGAAUUUUCUUUGCUUUUGUUUUCUUUGCGGUUGUUCUGUGUGCAUGGAUUCC: 1.74
UCAUAUUUGUUGUAUAAACUGGUUUAAUACAUUUGGAACAUAGUUGGAUUACAUUCAUUUCCUGGGAAAGCUAGCUUACCAUACAUUCAAGUUUAUAAAACAAUUUGCCA: 0.588
UAACUGCCAUCCCCUUCUGUGAGUUAUGUACGGGGACUUAGACUGUCCUGUGCAGAGGUGGAGGGCAGCUGUCUACAGGCUUCCUAGAGGUCACAUGCAGGACUGGGGUG: 1.57
ACCACCCUGGGGGAGGGCCCUUCCAAAGGGAGGCUUGCUAGUUUCAGCGUCUAGCAGUUGGGUCCUCACUUUUACUCCAAUUGUGAAAAUAGCCCACGUACCCUCGCAGU: 0.633
ACUUUAGAUAGCAGAAUUAUUUGCAAUUUGUAGCAUAGAAAAGAUUUUUAAAUUUUUUUACAAAAGGUUUUUAAACAGAUUAGGGUAGGUGAUGGUUUAAAUCAAUUAAG: 0.696
GAGCGGCCCAGCUCUGGGGGGCACGAGGUCACCUCCGAUGCCACUUACCAGCCUUUCUGAUUCUUUUUUAGCUCCCCGAUUGUCUACCCCGCAUCCCUGGUCACAUGCCC: 0.465
AGAGUUGGAAAUGCAAAAUUGCCAAAUAGCACAAACAGUGAAUGUUUUCCAGUUAUACGAGAUGCCAAAAUAGCACUUUUGUAUUUAACAGAGUGCUUUAUGCUUUUUAA: 0.305
ACUAGGCUGGGCCUGGCCCCAGAAGCCGGGCAGUUCCUGCCUCCUUCUCCACUUUUAUAAAGCCAAGCCUUUCCCCAGAAUAGUAUUAACUCCUGGUGCUUUGUACUACU: 0.285

Block 3
Target: Centromere-binding protein 1, full length, His-tagged (CBF1, Saccharomyces cerevisiae, UniProt P17106, residues 1-351)
UniProt P17106, sequence (whole entry, looked up): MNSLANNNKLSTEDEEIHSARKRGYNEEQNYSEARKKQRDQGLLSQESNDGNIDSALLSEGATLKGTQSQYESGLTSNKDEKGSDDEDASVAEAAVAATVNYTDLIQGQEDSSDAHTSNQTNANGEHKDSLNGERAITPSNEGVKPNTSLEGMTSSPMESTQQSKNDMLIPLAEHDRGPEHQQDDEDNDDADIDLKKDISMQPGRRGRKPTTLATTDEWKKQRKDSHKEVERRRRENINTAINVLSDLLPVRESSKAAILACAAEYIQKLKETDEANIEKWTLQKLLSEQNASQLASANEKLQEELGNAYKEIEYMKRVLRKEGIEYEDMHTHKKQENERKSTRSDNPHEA
Method: competition protein-binding microarray
Molecule type: double-stranded DNA, one strand shown
Medium: in vitro
Concentration: 2 µM
Setting: whole 60-bp probe, lowest competitor level
Added: Pho4 competitor, 0.05 µM
Reading: higher = stronger binding
Quantity: fluorescence intensity
Shared flanks, not repeated: … GTCTTGATTCGCTTGACGCTGCTG
ATTAAAAAGTGGATAATCGTGGGACTTATGGGTAAA: 95.1 a.u.
CCATCTTGTACTCACCACATGCCTATTAGTCACTAG: 114 a.u.
CGGGGTTAAGTTTGAGGAGTGGGTGGCTTGCAGCAG: 74.4 a.u.
AGGGTACCTCTTCTAAACGTGCCGAAGAACACTCGA: 86.7 a.u.
CGGGGTTAAGTTTGTCACTCTACTTGCTTGCAGCAG: 56.2 a.u.
CCGCTGCTCGCCGGCCACGTGCGCAGCCTGCAGGAG: 784 a.u.
CGTCCTAGTGATTGTCACGTAACTTCCATGAGGAAG: 126 a.u.
TTATCTTCAACAAGAAACGTGACGGTACTCATAAAG: 561 a.u.
AAGATATCTTTTTGTCATGTGATGGTACATCGTTTG: 901 a.u.
AACAAGGGCATTTTTCACGTGCCGATGAGCAGCAAG: 870 a.u.
GGTACAATCCGTTTGAACGTGACGGGGTTTGTTACA: 256 a.u.
CTAACGAAGGTTTTTCACGTGGCCTACAAGCCAAGT: 791 a.u.
ACCGAATCTTCGTTCCACGTGGTTACCTGTCATGGT: 1100 a.u.
CCTCTGAGAGCGAGTCACGGCCCGCTGAAGGGAAAG: 56.9 a.u.
GTACTGTTTCATTTAAACGTGTTTTCACTTGATCCA: 116 a.u.
CTTCTGTAAATTTTTCACGTGACATGAAGCGCCCCG: 4850 a.u.
CATTGCTAGCTCCTCTCCGTGACGGTTATTCAGTGT: 91 a.u.
CCTGTCTCCTCTCAACACGTTGCTCCTGTCAATAGT: 104 a.u.
ATTCACTAAGAGGCAAACATGACAACGCGGGCTCCA: 64.1 a.u.
GGTGATATACTGCGACACAATTTGTGTCTCTACTGT: 95.1 a.u.
AAATTACTAAGTTGATGGGTGGGTGACGCCGTATGA: 65.6 a.u.
TGCTGTCATTTGAGTCAGGTGTAGAGCAGGTTAGAA: 188 a.u.

Block 4
Target: Ras GTPase-activating protein-binding protein 1, full length (G3BP1, Homo sapiens, UniProt Q13283)
UniProt Q13283, sequence (whole entry, looked up): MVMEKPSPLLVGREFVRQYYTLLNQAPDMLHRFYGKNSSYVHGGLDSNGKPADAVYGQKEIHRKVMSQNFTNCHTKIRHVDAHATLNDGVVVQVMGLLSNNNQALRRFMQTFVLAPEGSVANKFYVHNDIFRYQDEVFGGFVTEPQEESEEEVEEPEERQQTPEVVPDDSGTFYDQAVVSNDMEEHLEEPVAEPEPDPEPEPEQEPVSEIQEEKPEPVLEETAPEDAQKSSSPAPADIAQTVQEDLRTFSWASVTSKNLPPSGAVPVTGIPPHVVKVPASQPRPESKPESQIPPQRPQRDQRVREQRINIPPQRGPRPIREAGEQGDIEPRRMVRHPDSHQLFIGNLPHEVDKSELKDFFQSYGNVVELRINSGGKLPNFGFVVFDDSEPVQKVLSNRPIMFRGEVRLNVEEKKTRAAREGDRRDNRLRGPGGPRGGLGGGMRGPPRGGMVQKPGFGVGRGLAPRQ
Method: RNA Bind-n-Seq
Molecule type: RNA
Medium: in vitro
Concentration: 200 nM
Setting: whole 134-nt RNA, ends assumed
Added: 150 mM LiCl
Relative to: input library
Reading: higher = stronger binding
Quantity: log2 enrichment
All molecules: 7-deaza-guanosine replaces G
Shared flanks, not repeated: GGGAGUUCUACAGUCCGACGAUC … UGGAAUUCUCGGGUGUCAAGG
GUCCUGUGCUACACAUCGUAUGUACCGAAUCGGGGAAAAAGGGGAGGGGAAAAAGGGGAAAGUAUUAUGUUACGCCGUUCGGAUCUGCAC: 0.25
CUCAAGUCCUGUGCUACACAUCGUAUGUACCGAAUCGGGUUGGUUGGGUUGGGGAAAGUAUUAUGUUACGCCGUUCGGAUCUGCACUUCC: -0.342
UAACUUUAGAGGAGGAUCUGAUGGAUAUGGCAUUGGACGUGGAUUUGGGGAUGGCUAUAAUGGGUAUGGAGGAGGACCUGGAGGUGGCAA: -0.185
UGGGAGGUGGAUUUUGUUUACUUUUUUAGCUCAUUUCCAGGGGUGGGAAUUUUUUUUUAAUAUGUGUCAUGAAUAAAGUUGUUUUUGAAA: -0.047
UCAAGUCCUGUGCUACACAUCGUAUGUACCGAAUCGGAAAAAAAGGUUUGGUGGAAAGUAUUAUGUUACGCCGUUCGGAUCUGCACUUCC: -0.931
GCAGGAAGUAAACACAAAUGGAAAUGCUUCGGAUAGUGGCAGGGGUGGGGGUUGCUAAGGAAAGGGUGGGAUGGGAGUGGGUAAAGAGUU: -0.0756
UCCUGUGCUACACAUCGUAUGUACCGAAUCGGGGUUUGGGGUUUGGGGUUUUUUUGGGGAAAGUAUUAUGUUACGCCGUUCGGAUCUGCA: 0.161
UCAAGUCCUGUGCUACACAUCGUAUGUACCGAAUCGGAAAAAGGAAAAAGGAGGAAAGUAUUAUGUUACGCCGUUCGGAUCUGCACUUCC: -0.251
UCAAGUCCUGUGCUACACAUCGUAUGUACCGAAUCGGGGCCCGGGCCCGGCCCGGAAAGUAUUAUGUUACGCCGUUCGGAUCUGCACUUC: -0.366
ACCAUGCAGGUGGGCAUCUUUGGGAAGUGGGGCAAGGGGGGGAUAGGGAGGGGGGUAACAAUUUGGGAACAGGUGGUCCCAGGUCGUUUC: 0.0118
GCAGGAAGUAAAAACAAAUGGAAAGGCUUCGGAUAGUGGCAGGGGUGGGGGUUGCUAAGGAAAGGGUGGGAUGGGAGUGGGUAAAGAGUU: -0.295

Excerpt of the above (block 1):
CACGAACTGAGTATCGAGACGTGCTAG: 1.24 z-score
GACGGTTTCGGTTCCGGGTCGTGCTAG: 15.8 z-score
GACTTTTTAGATATCTTTTTGTGCTAG: 0.399 z-score
TCTGTTTTTGCTTTCCTTCTGTGCTAG: 1.93 z-score
